Published values pooled from the literature.
Compare with care: the assays were run in different laboratories.
RPS6KA2 C-terminal kinase domain: Ribosomal protein S6 kinase alpha-2, C-terminal kinase domain (RPS6KA2, Homo sapiens, UniProt Q15349)
RPS6KA2 N-terminal kinase domain: Ribosomal protein S6 kinase alpha-2, N-terminal kinase domain (RPS6KA2, Homo sapiens, UniProt Q15349)

The remaining binding of COc1cc(Nc2nc(C)cc(-c3cnn4nc(OC)ccc34)n2)cc(C(F)(F)F)c1 is reported as 90% (RPS6KA2 C-terminal kinase domain; binding, competition with immobilised ligand; 1 µM).
The remaining binding of CNC1C[S+]2CC[S+]3CC[S+](C1)[Ru-4]321([N]=C=S)[n]2c3ccc(OC)cc3c3c4c(c5cc(F)c[n+]1c5c32)C(=O)NC4=O (stereo not drawn) is reported as 69% (RPS6KA2 C-terminal kinase domain; KinomeScan; 0.1 µM; relative to: untreated).
For COc1c(Cl)cccc1Nc1c(-c2ccncc2C#C[C@@]2(C)CCCN2C(=O)/C=C/CN(C)C)[nH]c2c1C(=O)NCC2, the remaining binding was 100% (RPS6KA2 N-terminal kinase domain; binding, competition with immobilised ligand; 3 µM).
For CC(C)=CC1OC(C)(C)C2C=C3C(=O)C(Cl)=CC(O)C3C3C(O)C4OC4C(=O)C132 (stereo not drawn), the remaining binding was 98% (RPS6KA2 N-terminal kinase domain; cell-free assay, competition with immobilised ligand; 10 µM).
With C=CC(=O)N1CCCC(n2c(=O)c3ncccc3n(Cc3ccc(Oc4ccccc4)cc3)c2=O)C1 (stereo not drawn) the remaining binding was 86% (RPS6KA2 N-terminal kinase domain; binding, competition with immobilised ligand; 1 µM).
Cc1cnc2nc1Nc1cccc(c1)COC/C=C/COCc1cc(ccc1OCCN1CCOCC1)N2 has a remaining binding of 100% (RPS6KA2 N-terminal kinase domain; binding, competition with immobilised ligand; 0.1 µM).
With CCN1CCN(Cc2ccc(C(=O)Nc3ccc(C)c(NCc4cnc5[nH]ccc5c4OC)c3)cc2C(F)(F)F)CC1 the remaining binding was 83% (RPS6KA2 C-terminal kinase domain; binding, competition with immobilised ligand; 1 µM).
The remaining binding of CNC(=O)C1CCN(c2cc(C)c(F)cc2NC(=O)c2ccc(-c3cc(O)ccc3C)c(C)c2)CC1 is reported as 94% (RPS6KA2 N-terminal kinase domain; binding, competition with immobilised ligand; 1 µM).
With C=CC(=O)N1CCc2ccc(-n3c(=O)ccc4cnc5ccc(-c6cnn(C)c6)cc5c43)cc21 the remaining binding was 100% (RPS6KA2 N-terminal kinase domain; KINOMEscan; 1 µM; relative to: DMSO control).
With Nc1ncc2c(n1)-c1c([nH]c3ccc(C4=CCOCC4)cc13)CCC2 the remaining binding was 100% (RPS6KA2 N-terminal kinase domain; binding, competition with immobilised ligand; 1 µM).
Cc1ccc(-c2c(/C=C(\C#N)C(=O)NC(C)C)n(CCCO)c3ncnc(N)c23)cc1 gave a remaining binding of 78% (RPS6KA2 N-terminal kinase domain; binding, competition with immobilised ligand; 1 µM).
The remaining binding of COc1cc(Nc2nccc(-c3cnn4nc(OC)ccc34)n2)cc(C(F)(F)F)c1 is reported as 93% (RPS6KA2 N-terminal kinase domain; binding, competition with immobilised ligand; 1 µM).

For quick reference, copied from above:
The remaining binding of CNC(=O)C1CCN(c2cc(C)c(F)cc2NC(=O)c2ccc(-c3cc(O)ccc3C)c(C)c2)CC1 is reported as 94% (RPS6KA2 N-terminal kinase domain; binding, competition with immobilised ligand; 1 µM).
With C=CC(=O)N1CCc2ccc(-n3c(=O)ccc4cnc5ccc(-c6cnn(C)c6)cc5c43)cc21 the remaining binding was 100% (RPS6KA2 N-terminal kinase domain; KINOMEscan; 1 µM; relative to: DMSO control).
